# Results from different studies.
# ESR1: Estrogen receptor (ESR1, Homo sapiens, UniProt P03372)
# Sequence of UniProt P03372 (whole entry, unmodified, looked up): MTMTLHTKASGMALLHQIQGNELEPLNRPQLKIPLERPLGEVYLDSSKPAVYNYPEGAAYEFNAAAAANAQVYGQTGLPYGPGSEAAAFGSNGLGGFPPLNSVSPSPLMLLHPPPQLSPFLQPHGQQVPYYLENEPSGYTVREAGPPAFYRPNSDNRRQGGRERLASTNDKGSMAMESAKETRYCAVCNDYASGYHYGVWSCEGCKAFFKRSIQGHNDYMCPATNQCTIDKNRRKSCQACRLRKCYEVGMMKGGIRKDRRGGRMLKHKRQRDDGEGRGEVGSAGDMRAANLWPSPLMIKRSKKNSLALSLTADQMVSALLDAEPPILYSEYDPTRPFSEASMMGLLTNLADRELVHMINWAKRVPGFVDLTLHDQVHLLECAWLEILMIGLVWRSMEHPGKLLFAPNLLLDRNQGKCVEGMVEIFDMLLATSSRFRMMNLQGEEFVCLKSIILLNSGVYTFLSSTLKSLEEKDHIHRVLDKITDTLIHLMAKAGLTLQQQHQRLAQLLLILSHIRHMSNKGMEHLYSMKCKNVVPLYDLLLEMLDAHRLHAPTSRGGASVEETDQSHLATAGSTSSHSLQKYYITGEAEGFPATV
# ESR1 D538G: Estrogen receptor (ESR1, Homo sapiens, UniProt P03372, D538G)
Compound,target,assay,test system,conditions,scale,endpoint,result
C[C@]12CC[C@@H]3c4ccc(O)cc4C[C@@H](CCCCCCCCC[S+]([O-])CCCC(F)(F)C(F)(F)F)[C@H]3[C@@H]1CC[C@@H]2O (stereo partly drawn),ESR1,"antagonist, CALUX reporter",U2OS,3e-06 µg/mL,,antagonist response,44.9%
O=C1CC[C@H](N2Cc3c(ccc4c3OCC43CCN(C[C@@H]4CCC5(CCN(c6ccc([C@@H]7c8ccc(O)cc8CC[C@@H]7c7ccccc7)cc6)CC5)OC4)CC3)C2=O)C(=O)N1,ESR1 D538G,"degrader, western blot",MCF7 ESR1 D538G,"10 and 100 nM, 7 h",,ER level reduction,> 80%
CCCN1CC(Oc2ccc([C@@H]3c4[nH]c5ccccc5c4C[C@@H](C)N3CC(C)(C)F)cc2)C1,ESR1,"alkaline phosphatase, antagonist",Ishikawa,"72 h, with: estradiol 500 pM",,Emax,98%
O=c1c(O)c(-c2ccc(O)c(O)c2)oc2cc(O)ccc12,ESR1,array formation,PRL-HeLa,,relative to: EC50 ERβ over EC50 ERα,selectivity ratio,0.313
O=C1CC[C@H](N2Cc3cc(N4CCN(CC5CCN(c6ccc([C@@H]7c8ccc(O)cc8CC[C@@H]7c7ccccc7)cc6)CC5)CC4)ccc3C2=O)C(=O)N1,ESR1 D538G,"degrader, western blot",MCF7 ESR1 D538G,"10 and 100 nM, 7 h",,ER level reduction,> 80%
COc1c(O)cc2oc(-c3ccccc3)cc(=O)c2c1O,ESR1,array formation,PRL-HeLa,,relative to: EC50 ERβ over EC50 ERα,selectivity ratio,0.44
COc1cc(/C=N/NC(=O)c2cc3c(ccc4ccccc43)o2)cc(OC)c1O,ESR1,"PGC-1α coactivator displacement, inhibitor, TR-FRET",,"up to 100 µM, with: estradiol",,activity,inactive
O=c1cc(-c2ccccc2)oc2cc(O)ccc12,ESR1,array formation,PRL-HeLa,,relative to: EC50 ERβ over EC50 ERα,selectivity ratio,0.839
O=C1CC[C@H](N2Cc3cc(N4CCN(CC5CCN(c6ccc([C@@H]7c8ccc(O)cc8CC[C@@H]7c7ccccc7)cc6)CC5)CC4)ccc3C2=O)C(=O)N1,ESR1,degrader,"NOD/SCID mouse MCF7 xenograft, tumour lysate","oral, 10 mg/kg daily x3, 18 h post last dose",relative to: vehicle,protein level reduction,≥ 90%
